# Measurements from different studies.
# “And” joins repeats or separate records; there may be more than shown. Numbers after ± are the reported error.
# USP14: Ubiquitin carboxyl-terminal hydrolase 14 (USP14, Homo sapiens, UniProt P54578)
# Gria2/Glutamate receptor 3: Gria2/Glutamate receptor 3 (Rattus norvegicus, UniProt P19491+P19492)
Structure (SMILES),target,test,system,setting,scale,quantity,result
O=C1NC(=Cc2ccc(O)cc2)C(=O)c2ccccc21,USP14,"enzyme activity, inhibitor",,17 µM,,inhibition,96%
CCCCOc1ccc(C(=O)OCC[N+]2(C)CC=CCC2)cc1 (stereo not drawn),"CHRM1 (Homo sapiens, UniProt P11229)",,membranes,"10 µM, 15 h, no carbachol",relative to: control,basal binding,0.94 ± 0.02 fold
COC(=O)Cc1cc2c(cc1C(=O)c1ccccc1I)OCO2,Gria2/Glutamate receptor 3,"glutamate-evoked current, whole-cell patch clamp",HEK-293T,"concentration not given, weighted tau, 500 ms pulse, added: glutamate",,desensitization time constant,2.5 ± 0.2 ms
Cc1ccc(S(=O)(=O)N/N=C/c2ccsc2B(O)O)cc1,"Neutrophil elastase (ELANE, Homo sapiens, UniProt P08246)","enzyme activity, inhibitor, progress curves",,,,association rate constant,216 ± 24 M⁻¹ s⁻¹
CCN(CC)C(=O)c1ccc(O)c(OC)c1,"Heat shock protein HSP 90-alpha, N-terminal domain (HSP90AA1, Homo sapiens, UniProt P07900)","binding, ligand-observed NMR titration",,"10.00 µM, ligand to protein ratio 56",,bound ligand fraction,0.74
COc1ccc(C(OCCN2CCCC(C(=O)O)C2)(c2ccc(CN3CCCC3=O)cc2)c2ccc(OC)cc2)cc1 (stereo not drawn),"SLC6A9 (Homo sapiens, UniProt P48067)",cell-free assay,,1 µM,,remaining signal,57%
CN(Cc1cc(C2CC2)on1)C(=O)c1cccc(-c2ccc3c(c2)CCO3)c1,"Acetyl-CoA synthetase (Cryptococcus neoformans, UniProt J9VFT1)","enzyme activity, inhibitor, coupled pyrophosphate",,488 nM,higher is more activity,reaction rate,0.00167 a.u.
COc1cc(OC)cc(C2C(C#N)=C(N)Nc3oc(C)nc32)c1 (stereo not drawn),USP14,"enzyme activity, inhibitor",,17 µM,,inhibition,8%
Cn1cc(-c2cc(N3CCCCS3(=O)=O)ccc2N[C@H]2CC[C@H](C)CC2)c2cc[nH]c2c1=O (stereo in doubt),"EP300 (Homo sapiens, UniProt Q09472)","binding, competition with immobilised ligand",,1 µM,,remaining binding,16%
O=C(N1CCCC1)n1cc(-c2ccc(-c3ccccc3)cc2)nn1,"Abhd6 (Mus musculus, UniProt Q8R2Y0)","enzyme activity, inhibitor, competitive ABPP-SILAC",mouse T-cells,"concentration not given, 4 h, treated in situ",relative to: DMSO,activity ratio,0.55
CC[C@H](C)[C@H](NC(=O)[C@@H](NC(=O)[C@@H](NC(=O)[C@@H](NC(=O)[C@H](CCCNC(=N)N)NC(=O)[C@H](CCC(=O)O)NC(=O)[C@H](CCC(=O)O)NC(=O)[C@H](C)NC(=O)[C@H](CCC(=O)O)NC(=O)CNC(=O)[C@H](C)NC(=O)CN)C(C)C)C(C)C)C(C)C)C(=O)N[C@@H](CC(=O)O)C(=O)N[C@@H](CC(=O)O)C(=O)N[C@@H](CC(=O)O)C(=O)N[C@@H](CCC(=O)O)C(=O)N[C@@H](CC(=O)O)C(=O)N[C@@H](CC(=O)O)C(=O)N[C@@H](CC(=O)O)C(=O)N[C@@H](C)C(=O)N[C@@H](CCC(=O)O)C(=O)N[C@@H](CC(N)=O)C(=O)N[C@@H](CO)C(=O)N[C@@H](CO)C(=O)N[C@@H](CO)C(=O)N[C@@H](CCCNC(=N)N)C(=O)N[C@@H](Cc1ccc(O)cc1)C(=O)O,"Small ubiquitin-related modifier 1 (Homo sapiens, UniProt P63165, C52A)","binding, ITC",,"pH 7.4, chimera with SUMO2 N-terminus",,ΔH,6.72 ± 0.91 kcal/mol
[2H]C([2H])([18F])Oc1cc(C(=O)OCC2CCN(CCCC)CC2)ccc1N,"SIGMAR1 (Homo sapiens, UniProt Q99720)",NIMH-PDSP radioligand binding,,,relative to: [11C]RX-1,affinity ratio,~2 fold
O=[N+]([O-])c1cc(Br)cc([N+](=O)[O-])c1NS(=O)(=O)c1ccc(Br)cc1,"PYL5, with HAB1 (Arabidopsis thaliana, UniProt Q9FLB1)",antagonist,,"5 µM, added: ABA 5 µM",higher = more HAB1 activity,HAB1 phosphatase activity,0.083 a.u. and 0.103 a.u.
CC[C@@H](C)[C@@H](NC(=O)[C@@H](Cc1ccc(O)cc1)NC(=O)[C@H]1CCCN1C(=O)[C@@H](CCCNC(=N)N)NC(=O)[C@H](N)Cc1c[nH]cn1)C(=O)N[C@H](C)C(=O)N[C@H](Cc1c[nH]cn1)C(=O)N[C@H](CCCNC(=N)N)C(=O)N[C@@H](C(=O)N[C@H](Cc1ccc(O)cc1)C(=O)N[C@H](CO)C(=O)N[C@H](Cc1ccccc1)C(=O)NCC(=O)NCC(=O)NCC(=O)N[C@@H](CCCCNC(=O)CCCC[C@@H]1SC[C@@H]2NC(=O)N[C@@H]21)C(N)=O)C(C)C,"Cd274 (Mus musculus, UniProt Q9EP73)","flow cytometry, measured: Cd274",,"concentration not given, 24 h",relative to: 0 h,relative surface expression,1 and 1.1 and 1.09
CCCCCC(O)/C=C/C=O (stereo not drawn),"60 kDa heat shock protein, mitochondrial (Homo sapiens, UniProt P10809)","competitive isoTOP-ABPP, measured: HSPD1 cysteine peptide","proteome, soluble, MDA-MB-231","100 µM, added: iodoacetamide probe","relative to: DMSO over compound-treated, higher = stronger cysteine blockade",isoTOP-ABPP competition ratio,2.2
CC[C@H](C)[C@@H]1NC(=O)[C@H](Cc2ccccc2)NC(=O)[C@H](CCC(=O)O)NC(=O)[C@H](CCCNC(=N)N)NC(=O)CNC(=O)[C@@H](NC(=O)[C@H](CC(C)C)NC(=O)[C@H](CCCNC(=N)N)NC(=O)[C@@H](NC(=O)CNC(=O)[C@H](Cc2ccc(O)cc2)NC(=O)[C@@H]2CCCN2C(=O)[C@H](C)NC(=O)[C@H](C)NC(=O)[C@@H](N)CCCNC(=N)N)C(C)C)CSSC[C@@H]2NC(=O)[C@@H](NC(=O)[C@H](CO)NC(=O)[C@H](CO)NC(=O)[C@H](CO)NC(=O)[C@H](CC(C)C)NC(=O)CNC(=O)[C@H](C)NC(=O)[C@H](CC(C)C)NC(=O)[C@@H](NC(=O)[C@@H](N)CC(=O)O)C(C)C)CSSC[C@H](NC(=O)CNC(=O)[C@H](Cc3c[nH]c4ccccc34)NC(=O)[C@H](CCCCN)NC2=O)C(=O)N[C@@H](CO)C(=O)N[C@@H](CCCCN)C(=O)N[C@@H](CO)C(=O)N[C@@H](CCC(=O)O)C(=O)N[C@@H]([C@@H](C)CC)C(=O)N[C@@H](CO)C(=O)N[C@@H](CO)C(=O)N[C@@H](CC(C)C)C(=O)N[C@H](C(=O)O)CSSC[C@@H](C(=O)NCC(=O)NCC(=O)N[C@@H](CO)C(=O)N[C@@H](CCCNC(=N)N)C(=O)N[C@@H](Cc2c[nH]c3ccccc23)C(=O)O)NC(=O)[C@H]([C@@H](C)O)NC(=O)[C@H](Cc2ccccc2)NC(=O)[C@H]([C@@H](C)CC)NC(=O)[C@H](C(C)C)NC(=O)[C@H](C)NC(=O)[C@H](CCCNC(=N)N)NC1=O,"RXFP4 (Homo sapiens, UniProt Q8TDU9, D104A)",,,D104A mutant,relative to: wild type,change in Emax,-25.7% and -25% and -12.8%
Cc1cc(C(=O)Nc2nc3cccc(C)c3n2[C@H]2CCCCN(C(=O)/C=C/CN(C)C)C2)ccn1,"CDC2-like kinase 1 (Trypanosoma brucei brucei, UniProt Q382U0)",ADP-Glo,,2.5 µM,,kinase activity,-3.92% and -3.87%
NC(=O)C[C@@H]1NC(=O)[C@H](Cc2ccc(O)cc2)NC(=O)CNC(=O)CNC(=O)[C@H](CCC(=O)O)NC(=O)[C@H](CCC(=O)O)NC(=O)[C@H](Cc2ccccc2)NC(=O)[C@@H]2CCCN2C1=O,"EH domain-containing protein 1, EH domain (Homo sapiens, UniProt Q9H4M9)",ITC,,"concentration not given, 150 mM NaCl",,binding stoichiometry,1.06 ± 0.03
COC(=O)[C@@]1(Cc2ccccc2)C=C(C(=O)OC(C)(C)C)C(=O)CC1,"MAPK14 (Homo sapiens, UniProt Q16539, C119V)","peptide binding, fluorescence polarization",,15.62 µM,,fraction bound,0.361
O=C1c2sc(-c3ccc(N4CCC(CO)CC4)nc3F)nc2CCN1c1cccnc1,"TAR DNA-binding protein 43, aggregated (TARDBP, Homo sapiens, UniProt Q13148)","binding, surface plasmon resonance",brain-derived TDP-43 aggregates,300 nM,,SPR response,4.57 RU
CCCCCCCCCCCCCCCC(=O)NCCCC[C@H](NC(=O)[C@H](CCC(=O)O)NC(=O)[C@H](Cc1ccc(O)cc1)NC(=O)[C@H](CCC(=O)O)NC(=O)COCC(=O)NCCCOCCOCCOCCCNC(=O)[C@H](Cc1c[nH]c2ccccc12)NC(=O)[C@H](CCCCN)NC(=O)[C@H](C)NC(=O)[C@H](CCCCNC(=N)N)NC(=O)[C@H](CCC(N)=O)NC(=O)[C@H](Cc1c[nH]cn1)NC(=O)[C@H](CCSC)NC(=O)[C@H](CC(C)C)NC(=O)[C@H](CCC(N)=O)NC(=O)[C@@H](NC(=O)[C@H](CCC(=O)O)NC(=O)C(C)(C)NC(=O)[C@@H](NC(=O)C(C)(C)N)C(C)C)[C@@H](C)CC)C(=O)N[C@@H](CCC(=O)O)C(=O)N[C@@H](Cc1ccc(O)cc1)C(=O)N[C@@H](CCC(=O)O)C(N)=O,"PTH1R (Homo sapiens, UniProt Q03431)",agonist,Saos-2 with cAMP reporter,"31.6 nM, 90 min, washout after 30 min ligand",higher = more cAMP,cAMP luminescence AUC,2570 a.u.
Cc1ccccc1-c1cc(CN2c3ccccc3C=Cc3ccccc32)on1,"PPO3 (Agaricus bisporus, UniProt C7FF04)","enzyme activity, inhibitor",,concentration not given,,apparent Vmax,32 µmol/min
CCCCCC=CC=C1C(=O)C=CC1CC=CCCCC(=O)O (stereo not drawn),"Ketosamine-3-kinase (FN3KRP, Homo sapiens, UniProt Q9HA64)",competitive isoTOP-ABPP,Ramos soluble proteome,"100 µM, added: iodoacetamide probe","relative to: DMSO over compound-treated, higher = stronger cysteine blockade",isoTOP-ABPP competition ratio,2.1
O=C(O)Cc1cc2c(cc1C(=O)c1cccc(Cl)c1)OCO2,Gria2/Glutamate receptor 3,"glutamate-evoked current, whole-cell patch clamp",HEK-293T,"concentration not given, glutamate alone after washout, added: glutamate",,current amplitude after recovery,475 ± 32 pA
COC(=O)[C@@]1(C(C)C)C=C(C(=O)Nc2cccc(C(=O)Nc3ccc(Nc4nccc(-c5cccnc5)n4)c(C)c3)c2)C(=O)CC1,"MAPK8 (Homo sapiens, UniProt P45983)","kinase activity, inhibitor",,"0.006774 µM, unit not given, added: 10 mM glutathione",relative to: no inhibitor,remaining activity,0.984
CC1=CC(=NNc2nncc3ccccc23)CC1,USP14,"enzyme activity, inhibitor",,17 µM,,inhibition,2%
C#CCN1CCN(c2nc(N3CCN(c4ccc(Cc5cc(CNC(=O)[C@@H]6C[C@@H](O)CN6C(=O)[C@@H](NC(=O)C6(F)CC6)C(C)(C)C)c(O)cc5-c5scnc5C)cc4)CC3)nc(N3CCN(C(=O)C4CC4)C3)n2)CC1=O,"VHL/BRD9, with Elongin B/C (Homo sapiens, UniProt P40337+Q9H8M2)",native mass spectrometry,,"5 µM, added: BRD9 and VCB at 5 µM",relative to: unbound BRD9,ternary complex formation,0%

# Repeated from above:
Structure (SMILES),target,test,system,setting,scale,quantity,result
CC[C@@H](C)[C@@H](NC(=O)[C@@H](Cc1ccc(O)cc1)NC(=O)[C@H]1CCCN1C(=O)[C@@H](CCCNC(=N)N)NC(=O)[C@H](N)Cc1c[nH]cn1)C(=O)N[C@H](C)C(=O)N[C@H](Cc1c[nH]cn1)C(=O)N[C@H](CCCNC(=N)N)C(=O)N[C@@H](C(=O)N[C@H](Cc1ccc(O)cc1)C(=O)N[C@H](CO)C(=O)N[C@H](Cc1ccccc1)C(=O)NCC(=O)NCC(=O)NCC(=O)N[C@@H](CCCCNC(=O)CCCC[C@@H]1SC[C@@H]2NC(=O)N[C@@H]21)C(N)=O)C(C)C,"Cd274 (Mus musculus, UniProt Q9EP73)","flow cytometry, measured: Cd274",,"concentration not given, 24 h",relative to: 0 h,relative surface expression,1 and 1.1 and 1.09
NC(=O)C[C@@H]1NC(=O)[C@H](Cc2ccc(O)cc2)NC(=O)CNC(=O)CNC(=O)[C@H](CCC(=O)O)NC(=O)[C@H](CCC(=O)O)NC(=O)[C@H](Cc2ccccc2)NC(=O)[C@@H]2CCCN2C1=O,"EH domain-containing protein 1, EH domain (Homo sapiens, UniProt Q9H4M9)",ITC,,"concentration not given, 150 mM NaCl",,binding stoichiometry,1.06 ± 0.03
[2H]C([2H])([18F])Oc1cc(C(=O)OCC2CCN(CCCC)CC2)ccc1N,"SIGMAR1 (Homo sapiens, UniProt Q99720)",NIMH-PDSP radioligand binding,,,relative to: [11C]RX-1,affinity ratio,~2 fold
